Measured values collected from several papers.
Every numbered part comes from another study and shows a few of its results, in no order.

Sample 1 — method: protein binding microarray; molecule type: double-stranded DNA, one strand shown; matrix: in vitro; concentration: not given; reference: not given; reading: higher = stronger binding
Target: Histone acetyltransferase KAT6A, winged helix 1, GST fusion (KAT6A, Homo sapiens, UniProt Q92794, residues 1-85)
Notes: 8-mer, flanks averaged, mean of 2 arrays, mostly near background
Construct (chain): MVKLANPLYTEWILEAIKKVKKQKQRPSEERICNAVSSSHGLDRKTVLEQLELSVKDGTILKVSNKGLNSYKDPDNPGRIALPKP
For `CTATTTTC`, the E-score was -0.163.
With `GATGTGTA` the E-score was -0.078.
`ATTGTATA` gave an E-score of -0.0776.
`AGTGAAGG` gave an E-score of -0.183.
With `ATGTTACA` the E-score was -0.0247.
For `CGTCTGGC`, the E-score was 0.0675.
With `CACCATGG` the E-score was -0.153.
`GATACAGC` has an E-score of -0.0538.

Sample 2 — method: protein-binding microarray; molecule type: double-stranded DNA, one strand shown; matrix: in vitro; concentration: 250 nM; notes: 60-bp whole probe; with: salmon DNA 0.4 mg/ml; reference: random background probes; reading: higher = stronger binding; all sequences stand within: GCCTAGCAC … GTCTTGATTCGCTTGACGCTGCTG
Target: Interferon regulatory factor 7, full length, phosphomimetic (IRF7, Homo sapiens, UniProt Q92985, residues 1-503, S101K/S471D/S472D/S475D/S476D/S477D/S483D/S484D/S487D)
Construct (chain): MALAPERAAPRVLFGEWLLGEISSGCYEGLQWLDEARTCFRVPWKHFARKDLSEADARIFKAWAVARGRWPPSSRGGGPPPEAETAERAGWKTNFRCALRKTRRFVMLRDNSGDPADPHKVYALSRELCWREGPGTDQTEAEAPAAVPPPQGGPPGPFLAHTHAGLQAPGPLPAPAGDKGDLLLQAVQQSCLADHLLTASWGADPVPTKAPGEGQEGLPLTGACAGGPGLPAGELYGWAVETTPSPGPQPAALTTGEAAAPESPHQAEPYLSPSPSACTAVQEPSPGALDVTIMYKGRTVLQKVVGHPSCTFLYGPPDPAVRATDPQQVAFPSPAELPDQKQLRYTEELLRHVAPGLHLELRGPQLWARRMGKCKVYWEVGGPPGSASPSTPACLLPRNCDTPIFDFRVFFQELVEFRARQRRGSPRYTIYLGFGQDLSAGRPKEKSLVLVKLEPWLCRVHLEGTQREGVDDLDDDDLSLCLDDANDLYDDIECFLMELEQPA
`TTAGATTTCAGTCTCGGTTAGTGCTAG` gave a log fluorescence of 2.19 z-score.
The log fluorescence of `GACGGACTGCTTCTCCTAACGTGCTAG` is reported as -0.0113 z-score.
`TTAGTACTGGGGTATCGGTTAGTGCTA` has a log fluorescence of 0.408 z-score.
For `TTAGGACTGCTTATCCGTTAGTGCTAG`, the log fluorescence was 0.0645 z-score.
`TCAATTTTGTTCATCATACTGTGCTAG` gave a log fluorescence of 0.346 z-score.
The log fluorescence of `TTAGGTTTCCTTATCCTTCAGTGCTAG` is reported as 3.01 z-score.

Sample 3 — method: universal PBM; molecule type: double-stranded DNA, one strand shown; matrix: in vitro; concentration: not given; reading: higher = stronger binding
Target: Sal-like protein 4, full length isoform B (SALL4, Homo sapiens, UniProt Q9UJQ4-2, residues 1-616)
Notes: 8-mer, flanks averaged, mean of replicates
Target sequence (chain): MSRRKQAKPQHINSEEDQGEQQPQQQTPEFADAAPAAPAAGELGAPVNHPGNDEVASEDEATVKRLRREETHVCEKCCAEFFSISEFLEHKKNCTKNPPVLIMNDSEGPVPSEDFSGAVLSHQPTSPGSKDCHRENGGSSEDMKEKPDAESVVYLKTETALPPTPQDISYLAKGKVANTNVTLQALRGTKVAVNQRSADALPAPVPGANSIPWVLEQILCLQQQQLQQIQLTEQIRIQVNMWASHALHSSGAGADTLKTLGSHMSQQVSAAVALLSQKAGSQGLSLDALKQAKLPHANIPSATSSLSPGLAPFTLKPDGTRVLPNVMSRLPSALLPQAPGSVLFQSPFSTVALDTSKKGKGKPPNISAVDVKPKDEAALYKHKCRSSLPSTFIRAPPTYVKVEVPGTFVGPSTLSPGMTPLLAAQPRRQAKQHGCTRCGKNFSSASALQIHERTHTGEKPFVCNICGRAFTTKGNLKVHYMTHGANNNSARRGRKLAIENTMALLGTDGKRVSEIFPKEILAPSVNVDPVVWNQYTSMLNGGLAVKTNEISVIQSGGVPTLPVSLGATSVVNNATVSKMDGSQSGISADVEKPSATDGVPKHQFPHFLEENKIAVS
`AGGCGCCC` has an E-score of -0.328.
`AAAACAGG` has an E-score of 0.0463.
The E-score of `CCATGTAA` is reported as 0.0854.
`GGCACAGA` gave an E-score of -0.211.
`GCAAGAGA` gave an E-score of -0.0728.
The E-score of `GCACGGCC` is reported as -0.361.
For `CCACTTAC`, the E-score was -0.0401.

Mixed results
For `PhoQ, residues 284 288 289 292 302 303 TVTVVA`, the fold induction was 9.73 (PhoP, residues 12 14 15 18 19 GQALL (Escherichia coli, UniProt P23836); Sort-seq, measured: YFP reporter; E. coli; PhoQ-PhoP variant library, with: 10 µM Mg2+; reference: high Mg2+ state, higher = stronger signaling).

A few entries again (sample 3):
The E-score of `CCATGTAA` is reported as 0.0854.
`AGGCGCCC` has an E-score of -0.328.
`AAAACAGG` has an E-score of 0.0463.
